Assay results of several laboratories.
Each numbered part is a random draw from the data of one study; scales do not carry over between parts. Values joined by “and” are separate records of one study, mostly repeats; a detail may differ.

Series 1
SMILES: Cc1ccc(O)c(C)c1-c1cnc2[nH]c(-c3cnc(N4CCC5(CC4)CC(N4CCN(c6ccc(N[C@H]7CCC(=O)NC7=O)cc6F)CC4)CO5)nc3)cc2c1C#N (single isomer, unassigned)
Matrix: plasma
Route: oral
system	setting	Cmax [ng/mL]
male Sprague-Dawley rat	20 mg/kg	2270
male beagle dog	5 mg/kg	583
male cynomolgus monkey	10 mg/kg	144
female CD-1 mouse	40 mg/kg	1180

Series 2
Structure (SMILES): Cc1ncsc1-c1ccc(C(CO)NC(=O)C2CC(O)CN2C(=O)C(C(C)C)n2cc(-c3ccc(COc4c(-c5c(C)c(F)cc6[nH]ncc56)c(C5CC5)cc5c(N6CC7CC6CN7)nc(OC6CCOCC6)nc45)cc3)nn2)cc1 (stereo not shown)
system	setting	tumour volume
mouse, PK-59 xenograft	1 mg/kg, day 21	1240 mm3 and 1210 mm3 and 1090 mm3 and 1410 mm3 and 1020 mm3
mouse, PK-59 xenograft	subcutaneous, 30 mg/kg once daily, day 18	45 mm3 and 44.5 mm3 and 43.7 mm3 and 58.2 mm3 and 42.1 mm3
GP5d xenograft, mouse	30 mg/kg once weekly, day 11	237 mm3 and 161 mm3 and 208 mm3 and 150 mm3 and 168 mm3
PK-1 xenograft, mouse	30 mg/kg once weekly, day 7	183 mm3 and 161 mm3 and 190 mm3 and 155 mm3 and 200 mm3
mouse, lung LXFA sample A PDX	30 mg/kg twice weekly, day 9	111 mm3 and 16 mm3 and 72.3 mm3 and 95.5 mm3 and 117 mm3 and 148 mm3 and 49.5 mm3 and 88.7 mm3
mouse, PK-59 xenograft	0.3 mg/kg, day 10	864 mm3 and 1010 mm3 and 834 mm3 and 817 mm3 and 729 mm3

Series 3
Compound: C[C@@H]1CN(c2ccc(-c3cc(C(=O)NCCOCCOCCOCCOCCOCCOCCNC(=O)/C=C/c4[nH]cc(C(=O)N[C@@H](CC(N)=O)c5ccc(F)c(Cl)c5)c4-c4ccc(Cl)cc4F)ccc3F)cc2NC(=O)c2ccc(F)cc2C(F)(F)F)C[C@H](C)N1C
Read-out: thermal unfolding
Method: differential scanning fluorimetry
Tested at: 5.5 µM
Reading: higher = more unfolded
WDR5: WD repeat-containing protein 5 (WDR5, Homo sapiens, UniProt P61964)
DCAF1: DDB1- and CUL4-associated factor 1 (DCAF1, Homo sapiens, UniProt Q9Y4B6)
Chain of UniProt Q9Y4B6 (whole entry, looked up): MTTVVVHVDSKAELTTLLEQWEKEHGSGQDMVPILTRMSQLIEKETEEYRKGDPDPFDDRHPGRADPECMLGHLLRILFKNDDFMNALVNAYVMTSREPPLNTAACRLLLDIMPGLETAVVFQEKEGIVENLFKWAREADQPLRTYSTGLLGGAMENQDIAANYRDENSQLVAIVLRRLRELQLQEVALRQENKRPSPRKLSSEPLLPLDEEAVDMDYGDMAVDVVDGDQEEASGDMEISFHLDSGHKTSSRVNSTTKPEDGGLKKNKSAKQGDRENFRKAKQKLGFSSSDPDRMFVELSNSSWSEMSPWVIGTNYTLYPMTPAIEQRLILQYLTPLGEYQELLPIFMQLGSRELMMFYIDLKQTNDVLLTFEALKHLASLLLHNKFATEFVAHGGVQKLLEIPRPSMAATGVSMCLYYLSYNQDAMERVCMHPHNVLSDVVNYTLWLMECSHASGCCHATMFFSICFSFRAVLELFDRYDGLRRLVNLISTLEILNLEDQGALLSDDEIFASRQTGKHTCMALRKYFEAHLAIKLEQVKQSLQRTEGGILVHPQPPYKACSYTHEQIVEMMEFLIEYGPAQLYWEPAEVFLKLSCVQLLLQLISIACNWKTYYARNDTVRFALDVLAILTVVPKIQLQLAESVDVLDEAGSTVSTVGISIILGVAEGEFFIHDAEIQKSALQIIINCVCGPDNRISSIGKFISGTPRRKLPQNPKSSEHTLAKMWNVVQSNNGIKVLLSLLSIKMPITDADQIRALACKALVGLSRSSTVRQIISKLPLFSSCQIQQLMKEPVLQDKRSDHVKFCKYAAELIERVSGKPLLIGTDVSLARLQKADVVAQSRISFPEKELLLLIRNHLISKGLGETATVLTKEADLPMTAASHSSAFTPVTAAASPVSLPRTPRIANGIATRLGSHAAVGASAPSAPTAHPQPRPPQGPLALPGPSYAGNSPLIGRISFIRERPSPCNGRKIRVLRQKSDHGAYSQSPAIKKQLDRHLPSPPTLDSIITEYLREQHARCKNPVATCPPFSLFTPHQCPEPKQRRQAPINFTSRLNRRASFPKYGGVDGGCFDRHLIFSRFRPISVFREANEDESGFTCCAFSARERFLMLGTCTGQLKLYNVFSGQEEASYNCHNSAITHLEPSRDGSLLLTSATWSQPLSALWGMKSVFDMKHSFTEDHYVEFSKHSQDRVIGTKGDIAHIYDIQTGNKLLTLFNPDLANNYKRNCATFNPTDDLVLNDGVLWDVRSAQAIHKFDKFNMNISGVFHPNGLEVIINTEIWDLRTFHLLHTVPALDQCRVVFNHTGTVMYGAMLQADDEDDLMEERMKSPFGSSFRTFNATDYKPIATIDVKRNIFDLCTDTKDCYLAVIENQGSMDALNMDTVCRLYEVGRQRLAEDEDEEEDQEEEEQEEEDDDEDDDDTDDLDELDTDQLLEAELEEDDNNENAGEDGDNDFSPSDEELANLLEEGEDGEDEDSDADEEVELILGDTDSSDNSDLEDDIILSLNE
target	setting	SYPRO Orange fluorescence [a.u.]
WDR5	85.81 °C	61000
WDR5	76.41 °C	54600
WDR5	76.81 °C	56200
DCAF1	84.01 °C	36800
DCAF1	54.01 °C	24400
WDR5	55.41 °C	16600
DCAF1	61.21 °C	51000

Single results of other studies
Structure (SMILES)	tested on	assay	system	setting	how to read	endpoint	result
CCOc1ccc2nc(Sc3nc(Nc4ccc(I)cc4)nc(N4CCOCC4)n3)sc2c1	Gaucher fibroblasts	qPCR, measured: GBA1		0.1 µM, 24 h, unit not given	reference: DMSO	mRNA level	1.26 and 0.992 and 0.838 and 1.28 and 1.15 and 1.67 and 1.52
CCN1/C(=C/C=C2\CCCC(/C=C/C3=[N+](CC)c4ccccc4C3(C)C)=C2NCCCCCCCCN2CCC(Nc3nc4ccccc4n3Cc3ccc(F)cc3)CC2)C(C)(C)c2ccccc21		dynamic light scattering	PBS	pH 5.0		particle diameter	745 nm

Some of these lines once more (single results of other studies):
Structure (SMILES)	tested on	assay	system	setting	how to read	endpoint	result
CCOc1ccc2nc(Sc3nc(Nc4ccc(I)cc4)nc(N4CCOCC4)n3)sc2c1	Gaucher fibroblasts	qPCR, measured: GBA1		0.1 µM, 24 h, unit not given	reference: DMSO	mRNA level	1.26 and 0.992 and 0.838 and 1.28 and 1.15 and 1.67 and 1.52
CCN1/C(=C/C=C2\CCCC(/C=C/C3=[N+](CC)c4ccccc4C3(C)C)=C2NCCCCCCCCN2CCC(Nc3nc4ccccc4n3Cc3ccc(F)cc3)CC2)C(C)(C)c2ccccc21		dynamic light scattering	PBS	pH 5.0		particle diameter	745 nm
